Results collected from several papers.
A part holds a random share of what one study measured. Positions count from the first letter of the parent shown.

Series 1
Target: ABI1, truncated, D143A, DHFR fusion (Arabidopsis thaliana)
Method: DHFR PCA, deep sequencing
Medium: yeast
Setting: methotrexate growth selection, single substitutions
Added: (+)-ABA 0.39 µM
Relative to: wild-type fitted maximum
Direction: higher = stronger binding
Starting sequence: PYL1, truncated, DHFR fusion (Arabidopsis thaliana); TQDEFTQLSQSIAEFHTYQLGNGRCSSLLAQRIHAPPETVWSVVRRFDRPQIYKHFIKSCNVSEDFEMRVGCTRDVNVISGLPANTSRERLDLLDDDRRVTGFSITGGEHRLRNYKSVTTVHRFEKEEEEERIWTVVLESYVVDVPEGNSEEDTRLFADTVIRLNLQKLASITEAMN; partner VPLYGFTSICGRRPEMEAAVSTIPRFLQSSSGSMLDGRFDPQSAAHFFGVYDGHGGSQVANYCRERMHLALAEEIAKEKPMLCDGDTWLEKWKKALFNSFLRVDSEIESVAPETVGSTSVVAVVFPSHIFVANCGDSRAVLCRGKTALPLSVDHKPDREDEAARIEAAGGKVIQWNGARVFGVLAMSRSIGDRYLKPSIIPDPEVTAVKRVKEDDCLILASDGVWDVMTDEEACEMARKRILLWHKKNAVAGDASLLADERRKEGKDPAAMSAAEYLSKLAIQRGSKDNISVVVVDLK
Change | relative binding score
R123L | 9.83%
G102A | 12.2%
Q7E | 47.7%
E109L | -0.535%

Series 2
Target: TAR DNA-binding protein 43, full length, His tag (TARDBP, Homo sapiens, UniProt Q13148, residues 1-414)
Method: RNA Bind-n-Seq
Form: RNA
Medium: in vitro
Tested at: 20 nM
Setting: 6-mer, flanks averaged, single round
Added: 150 mM LiCl
Relative to: input library
Direction: higher = stronger binding
Oligonucleotide | 6-mer enrichment (R)
GAGGGU | 1.24
AAGCGA | 0.844
AUUGCA | 0.889
AUCUCG | 0.819
AUCGGU | 0.904

Series 3
Target: CCNA1, cyclin fold, Cln2 fusion (human)
Method: yeast growth competition, sequencing
Medium: yeast
Setting: weak parent motif
Relative to: not given
Direction: higher = stronger binding
Starting sequence: WEE1 docking peptide (human); HKTFRKLRLFDTP; partner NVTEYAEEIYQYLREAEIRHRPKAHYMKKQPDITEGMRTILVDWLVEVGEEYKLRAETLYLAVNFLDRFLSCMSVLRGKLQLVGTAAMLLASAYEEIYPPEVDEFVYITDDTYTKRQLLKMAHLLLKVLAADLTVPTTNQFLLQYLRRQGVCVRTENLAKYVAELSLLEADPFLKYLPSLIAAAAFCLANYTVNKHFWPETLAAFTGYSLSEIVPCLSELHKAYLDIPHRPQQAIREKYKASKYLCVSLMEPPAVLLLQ
Change | normalised enrichment score
F4C | 0.203
R8I | 0.697
D11R | 0.219
H1F | 0.0647
R8C | 0.434
L7D | -0.0569
K2C | 0.0943

Single results of other studies
Molecule | target | test | system | conditions | how to read | measurement | result
PhoQ, residues 284 288 289 292 302 303 NSMLDC | PhoP, residues 12 14 15 18 19 IQSYL (Escherichia coli, UniProt P23836) | Sort-seq, item: YFP reporter | E. coli | PhoQ-PhoP variant library, added: 10 µM Mg2+ | relative to: high Mg2+ state, higher = stronger signaling | fold induction | 18.9

Some of these lines once more (single results of other studies):
Molecule | target | test | system | conditions | how to read | measurement | result
PhoQ, residues 284 288 289 292 302 303 NSMLDC | PhoP, residues 12 14 15 18 19 IQSYL (Escherichia coli, UniProt P23836) | Sort-seq, item: YFP reporter | E. coli | PhoQ-PhoP variant library, added: 10 µM Mg2+ | relative to: high Mg2+ state, higher = stronger signaling | fold induction | 18.9
